# Assay results pooled from the literature.
# Compare with care: the assays were run in different laboratories. Numbers after ± are the reported error.
# lecA: PA-I galactophilic lectin (lecA, Pseudomonas aeruginosa, UniProt Q05097)
# UniProt Q05097, sequence (whole entry, looked up): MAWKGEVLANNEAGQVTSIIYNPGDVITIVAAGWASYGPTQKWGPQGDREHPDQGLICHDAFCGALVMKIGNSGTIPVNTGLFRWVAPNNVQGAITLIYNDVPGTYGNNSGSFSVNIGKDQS
# UniProt O35082, sequence (whole entry, looked up): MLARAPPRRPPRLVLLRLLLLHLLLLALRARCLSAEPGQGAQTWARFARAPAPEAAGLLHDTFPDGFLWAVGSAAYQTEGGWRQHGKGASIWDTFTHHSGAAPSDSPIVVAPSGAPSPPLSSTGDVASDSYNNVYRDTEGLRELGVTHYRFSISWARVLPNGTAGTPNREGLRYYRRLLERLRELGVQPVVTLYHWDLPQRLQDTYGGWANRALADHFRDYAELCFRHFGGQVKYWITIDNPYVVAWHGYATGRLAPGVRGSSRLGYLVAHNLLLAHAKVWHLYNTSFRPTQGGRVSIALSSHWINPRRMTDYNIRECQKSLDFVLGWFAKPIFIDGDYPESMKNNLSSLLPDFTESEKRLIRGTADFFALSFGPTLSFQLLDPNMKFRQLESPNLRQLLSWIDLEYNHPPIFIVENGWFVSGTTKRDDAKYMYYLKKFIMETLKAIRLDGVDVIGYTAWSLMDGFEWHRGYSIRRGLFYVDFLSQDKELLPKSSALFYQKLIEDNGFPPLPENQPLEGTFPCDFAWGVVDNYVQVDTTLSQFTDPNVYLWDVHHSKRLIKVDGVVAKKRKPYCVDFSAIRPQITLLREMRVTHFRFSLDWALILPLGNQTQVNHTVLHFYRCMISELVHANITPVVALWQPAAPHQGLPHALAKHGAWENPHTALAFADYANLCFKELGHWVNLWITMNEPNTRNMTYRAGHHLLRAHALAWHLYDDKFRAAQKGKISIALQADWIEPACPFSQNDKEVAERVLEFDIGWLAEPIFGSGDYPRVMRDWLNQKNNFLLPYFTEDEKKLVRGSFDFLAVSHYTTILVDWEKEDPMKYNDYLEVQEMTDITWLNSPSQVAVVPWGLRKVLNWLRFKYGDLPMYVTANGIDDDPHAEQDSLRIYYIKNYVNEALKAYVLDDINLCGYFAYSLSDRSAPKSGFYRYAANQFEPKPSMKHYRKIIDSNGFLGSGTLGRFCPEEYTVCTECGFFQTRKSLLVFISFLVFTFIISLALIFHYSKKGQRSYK
# UniProt Q767F1, sequence (whole entry, looked up): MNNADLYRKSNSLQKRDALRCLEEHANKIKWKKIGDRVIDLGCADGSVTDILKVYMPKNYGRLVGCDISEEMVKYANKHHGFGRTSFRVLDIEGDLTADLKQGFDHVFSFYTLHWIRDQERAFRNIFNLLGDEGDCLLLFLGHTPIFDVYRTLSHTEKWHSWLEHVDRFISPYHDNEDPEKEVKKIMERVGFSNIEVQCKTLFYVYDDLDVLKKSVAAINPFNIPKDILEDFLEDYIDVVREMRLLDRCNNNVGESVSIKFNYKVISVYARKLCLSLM
# UniProt Q8NHP6, sequence (whole entry, looked up): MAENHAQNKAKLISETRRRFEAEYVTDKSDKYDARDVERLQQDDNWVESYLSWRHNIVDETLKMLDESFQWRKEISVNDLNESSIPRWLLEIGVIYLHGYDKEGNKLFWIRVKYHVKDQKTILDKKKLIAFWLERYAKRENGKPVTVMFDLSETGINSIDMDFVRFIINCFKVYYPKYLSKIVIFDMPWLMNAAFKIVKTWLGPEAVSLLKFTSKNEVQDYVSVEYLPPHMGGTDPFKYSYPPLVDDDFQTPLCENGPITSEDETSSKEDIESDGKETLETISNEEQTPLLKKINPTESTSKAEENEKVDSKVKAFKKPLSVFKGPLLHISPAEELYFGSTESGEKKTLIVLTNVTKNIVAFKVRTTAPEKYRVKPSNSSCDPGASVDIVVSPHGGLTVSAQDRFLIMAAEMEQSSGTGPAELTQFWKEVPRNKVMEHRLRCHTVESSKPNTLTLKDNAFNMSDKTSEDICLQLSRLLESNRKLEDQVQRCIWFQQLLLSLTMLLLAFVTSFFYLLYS
# UniProt O55242, sequence (whole entry, looked up): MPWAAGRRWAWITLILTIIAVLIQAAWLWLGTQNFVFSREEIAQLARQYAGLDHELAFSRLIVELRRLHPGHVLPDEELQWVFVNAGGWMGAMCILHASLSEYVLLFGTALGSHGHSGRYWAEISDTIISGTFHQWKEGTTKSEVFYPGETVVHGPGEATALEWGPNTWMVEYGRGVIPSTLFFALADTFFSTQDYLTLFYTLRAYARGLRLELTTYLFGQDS
# UniProt Q07741, sequence (whole entry, looked up): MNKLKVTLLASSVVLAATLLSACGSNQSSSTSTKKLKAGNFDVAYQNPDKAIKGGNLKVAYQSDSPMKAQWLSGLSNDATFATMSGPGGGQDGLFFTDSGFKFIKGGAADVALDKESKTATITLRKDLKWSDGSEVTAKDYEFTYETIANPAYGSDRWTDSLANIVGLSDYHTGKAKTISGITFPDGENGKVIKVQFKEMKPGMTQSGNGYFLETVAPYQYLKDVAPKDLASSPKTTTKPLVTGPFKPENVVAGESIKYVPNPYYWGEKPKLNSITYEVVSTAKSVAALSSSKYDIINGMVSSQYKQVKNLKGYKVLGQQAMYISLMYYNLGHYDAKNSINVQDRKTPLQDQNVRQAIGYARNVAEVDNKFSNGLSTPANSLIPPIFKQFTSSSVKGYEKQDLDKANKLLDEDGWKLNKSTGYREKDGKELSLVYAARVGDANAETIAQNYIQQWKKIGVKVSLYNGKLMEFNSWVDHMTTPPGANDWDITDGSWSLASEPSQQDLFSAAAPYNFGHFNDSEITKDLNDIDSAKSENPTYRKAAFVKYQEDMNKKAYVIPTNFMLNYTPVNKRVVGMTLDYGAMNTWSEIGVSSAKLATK
# UniProt Q02242, sequence (whole entry, looked up): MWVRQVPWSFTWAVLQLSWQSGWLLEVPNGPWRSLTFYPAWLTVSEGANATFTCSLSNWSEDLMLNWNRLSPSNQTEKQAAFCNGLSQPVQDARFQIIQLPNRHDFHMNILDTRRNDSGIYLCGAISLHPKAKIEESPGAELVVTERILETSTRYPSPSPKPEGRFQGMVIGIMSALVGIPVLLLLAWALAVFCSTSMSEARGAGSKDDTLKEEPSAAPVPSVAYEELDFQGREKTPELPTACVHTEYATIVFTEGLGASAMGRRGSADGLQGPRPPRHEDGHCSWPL
# UniProt Q9NZC7, sequence (whole entry, looked up): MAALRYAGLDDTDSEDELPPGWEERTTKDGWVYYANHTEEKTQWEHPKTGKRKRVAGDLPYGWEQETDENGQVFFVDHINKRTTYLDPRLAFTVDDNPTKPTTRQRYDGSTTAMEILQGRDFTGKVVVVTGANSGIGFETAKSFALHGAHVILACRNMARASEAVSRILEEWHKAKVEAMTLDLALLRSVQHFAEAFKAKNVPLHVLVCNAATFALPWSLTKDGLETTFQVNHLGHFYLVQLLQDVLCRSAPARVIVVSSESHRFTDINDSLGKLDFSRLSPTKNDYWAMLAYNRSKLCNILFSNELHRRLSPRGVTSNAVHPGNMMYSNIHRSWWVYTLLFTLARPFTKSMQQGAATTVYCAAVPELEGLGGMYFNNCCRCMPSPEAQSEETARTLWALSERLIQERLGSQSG
# UniProt P22455, sequence (whole entry, looked up): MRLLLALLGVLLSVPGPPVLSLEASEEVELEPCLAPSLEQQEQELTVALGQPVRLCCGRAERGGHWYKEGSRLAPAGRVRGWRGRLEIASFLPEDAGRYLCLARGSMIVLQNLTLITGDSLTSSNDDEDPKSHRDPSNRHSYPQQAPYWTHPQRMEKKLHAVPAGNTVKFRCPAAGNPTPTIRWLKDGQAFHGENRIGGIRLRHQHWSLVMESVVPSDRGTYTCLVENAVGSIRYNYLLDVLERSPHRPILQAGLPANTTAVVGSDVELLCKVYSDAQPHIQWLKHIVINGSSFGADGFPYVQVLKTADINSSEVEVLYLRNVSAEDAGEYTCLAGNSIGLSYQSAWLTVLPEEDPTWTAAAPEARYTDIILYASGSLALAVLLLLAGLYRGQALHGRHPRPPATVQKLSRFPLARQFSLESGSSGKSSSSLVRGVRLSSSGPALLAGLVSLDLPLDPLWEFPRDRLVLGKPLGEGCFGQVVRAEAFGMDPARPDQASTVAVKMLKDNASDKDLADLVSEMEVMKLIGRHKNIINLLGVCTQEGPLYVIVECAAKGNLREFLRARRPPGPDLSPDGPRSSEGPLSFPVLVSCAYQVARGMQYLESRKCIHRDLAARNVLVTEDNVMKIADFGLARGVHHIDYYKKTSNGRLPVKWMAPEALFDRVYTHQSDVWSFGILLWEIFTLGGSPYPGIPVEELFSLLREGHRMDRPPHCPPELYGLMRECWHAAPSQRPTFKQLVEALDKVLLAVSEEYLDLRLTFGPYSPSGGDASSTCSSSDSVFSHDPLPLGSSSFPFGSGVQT
# UniProt Q23972, sequence (70-281, looked up): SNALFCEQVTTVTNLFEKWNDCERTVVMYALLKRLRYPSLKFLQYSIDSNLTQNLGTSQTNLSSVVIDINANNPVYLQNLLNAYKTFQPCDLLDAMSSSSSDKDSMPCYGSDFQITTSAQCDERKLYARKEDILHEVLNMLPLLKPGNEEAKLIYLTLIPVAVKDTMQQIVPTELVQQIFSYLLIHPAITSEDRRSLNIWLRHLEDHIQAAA
# UniProt P26718, sequence (whole entry, looked up): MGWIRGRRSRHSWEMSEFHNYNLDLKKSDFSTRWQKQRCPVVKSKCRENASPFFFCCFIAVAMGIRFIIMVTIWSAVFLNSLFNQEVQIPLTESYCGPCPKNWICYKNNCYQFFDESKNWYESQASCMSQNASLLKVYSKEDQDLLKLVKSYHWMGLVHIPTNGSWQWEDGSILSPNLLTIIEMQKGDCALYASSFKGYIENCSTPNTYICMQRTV
# UniProt P45973, sequence (whole entry, looked up): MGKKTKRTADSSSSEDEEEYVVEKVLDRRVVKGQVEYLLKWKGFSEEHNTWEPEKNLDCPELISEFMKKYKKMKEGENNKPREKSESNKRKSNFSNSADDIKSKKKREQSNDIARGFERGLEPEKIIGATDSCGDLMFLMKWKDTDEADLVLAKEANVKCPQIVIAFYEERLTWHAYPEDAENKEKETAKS
SMILES,target,assay,system,setting,Kd [µM]
CN1C(=O)[C@H](Cc2ccccc2)N(C)C(=O)[C@@H]2[C@H]1CCN2Cc1cc(Cl)cc(Cl)c1,"NKG2-D type II integral membrane protein (KLRK1, Homo sapiens, UniProt P26718)","binding, surface plasmon resonance",,"25 °C, 1:1 binding model",48.2
N=C(N)NCCC[C@H](NC(=O)[C@H](Cc1ccccc1)NC(=O)[C@@H]1CCCN1C(=O)[C@H](CO)NC(=O)[C@H](Cc1ccccc1)NC(=O)CNC(=O)[C@@H]1CCCN1C(=O)[C@@H]1CCCN1C(=O)[C@@H](N)CCCNC(=N)N)C(=O)N[C@@H](CCCCNS(=O)(=O)c1ccc(C2=c3cc4c5c(c3Oc3c2cc2c6c3CCCN6CCC2)CCC[N+]=5CCC4)c(S(=O)(=O)[O-])c1)C(=O)O,"Oligopeptide-binding protein OppA (oppA, Lactococcus lactis subsp. lactis, UniProt Q07741)","binding, fluorescence anisotropy",,"pH 6, 37 °C, together with: dye-labelled peptide",18 ± 0.7
I/C=C/CN1CCN(CCc2ccc3c(c2)CCO3)CC1 [iodine-123 labelled],"Sigmar1 (Mus musculus, UniProt O55242)",saturation radioligand binding,mouse brain membranes,"180 min, 37 °C",0.00024
CC[C@H](C)[C@H](NC(=O)[C@@H]1CCCN1C(=O)[C@@H]1CCCN1C(=O)[C@@H]1CCCN1C(=O)[C@@H](NC(=O)[C@H](CC(N)=O)NC(=O)[C@H](Cc1ccccc1)NC(=O)[C@H](C)N)[C@@H](C)CC)C(=O)N[C@@H](Cc1ccc(O)cc1)C(=O)N[C@H](C(=O)N[C@@H](CO)C(=O)N[C@@H](CCCNC(=N)N)C(=O)N[C@@H](C)C(=O)O)[C@@H](C)O,"WW domain-containing oxidoreductase, WW1-WW2 tandem domains (WWOX, Homo sapiens, UniProt Q9NZC7)",ITC,tandem WW1-WW2 domain,"pH 7.8, 20 °C, some values lower limits only",> 100
CSCC[C@H](NC(C)=O)C(=O)N[C@H](C(=O)N[C@@H](Cc1ccccc1)C(=O)N[C@@H](CC(C)C)C(=O)N[C@@H](CC(=O)O)C(=O)N[C@H](C(=O)N[C@H]1CSCc2cccc(c2)CSC[C@@H](C(=O)N[C@@H](Cc2ccc(O)cc2)C(=O)N[C@H](C(=O)N[C@@H](CO)C(=O)N[C@@H](Cc2ccccc2)C(=O)N[C@@H](CCSC)C(=O)NCC(=O)N[C@@H](CO)C(=O)NCC(=O)N[C@@H](CO)C(=O)NCC(=O)N[C@@H](CO)C(=O)N[C@@H](CC(=O)O)C(=O)N[C@@H](Cc2ccc(O)cc2)C(=O)N[C@@H](CCCCN)C(=O)N[C@@H](CC(=O)O)C(=O)N[C@@H](CC(=O)O)C(=O)N[C@@H](CC(=O)O)C(=O)N[C@@H](CC(=O)O)C(=O)N[C@@H](CCCCN)C(N)=O)C(C)C)NC(=O)[C@H](CCCNC(=N)N)NC(=O)[C@H]([C@@H](C)O)NC1=O)[C@@H](C)O)[C@@H](C)O,"FGFR4 (Homo sapiens, UniProt P22455)","binding, BLI",,,> 10
C=CCOC(=O)NCCC[C@@H](NC(=O)[C@H](CCCNC(=N)N)NC(=O)[C@H](C)NC(=O)[C@H](CCCNC(=N)N)NC(=O)CNC(=O)[C@H](CCCNC(=N)N)NC(=O)[C@@H](NC(=O)[C@@H](NC(=O)CNC(=O)[C@H](CC(C)C)NC(=O)[C@@H]1CCCN1C(=O)[C@H](CC(=O)O)NC(=O)[C@H](CO)NC(=O)[C@H](C)NC(=O)CC1c2ccccc2-c2ccccc21)C(C)C)C(C)C)C(N)=O,"Klotho (Kl, Mus musculus, UniProt O35082)",BLI competition binding,,"30 min, 30 °C, together with: 100 nM mouse Klotho, immobilized Pep-10-Biotin",0.01 ± 0.006
CC[C@H](C)[C@H](NC(=O)[C@@H](NC(=O)[C@H](Cc1c[nH]c2ccccc12)NC(=O)[C@H](CCC(=O)O)NC(=O)[C@H](CO)NC(=S)Nc1ccc2c(c1)C(=O)OC21c2ccc(O)cc2Oc2cc(O)ccc21)C(C)C)C(=O)N[C@H](C(=O)N[C@@H](C)C(=O)N1CCC[C@H]1C(=O)N[C@@H](Cc1ccccc1)C(=O)N[C@@H](CC(C)C)C(=O)N[C@H](C(=O)N[C@@H](CC(N)=O)C(=O)N[C@@H](CC(C)C)C(=O)O)[C@@H](C)O)C(C)C,"Rgg transcriptional regulator (Streptococcus pneumoniae, UniProt A0A0E7KI02)","binder, fluorescence polarization",,"20 min, pH 7.4, 20 °C, fluorescein-labelled peptide",23.5
CC[C@H](C)[C@H](NC(=O)[C@H](Cc1c[nH]cn1)NC(=O)[C@H](CCCCNC(=O)[C@@H](NC(=O)[C@H](CCCCN)NC(=O)CSC[C@H](NC(=O)[C@H](Cc1ccccc1)NC(=O)[C@H](CCCCNC(=O)[C@H](CC(C)C)NC(=O)[C@H](CCCCN)NC(=O)[C@H](CCCCN)NC(=O)CCS[C@@H]1O[C@H](CO)[C@H](O)[C@H](O)[C@H]1O)NC(=O)[C@H](CC(C)C)NC(=O)[C@H](CCCCN)NC(=O)[C@H](CCCCN)NC(=O)C[C@@H]1O[C@@H](C)[C@@H](O)[C@@H](O)[C@@H]1O)C(N)=O)[C@@H](C)CC)NC(=O)[C@@H](NC(=O)[C@H](CCCCN)NC(=O)CSC[C@H](NC(=O)[C@H](Cc1ccccc1)NC(=O)[C@H](CCCCNC(=O)[C@H](CC(C)C)NC(=O)[C@H](CCCCN)NC(=O)[C@H](CCCCN)NC(=O)CCS[C@@H]1O[C@H](CO)[C@H](O)[C@H](O)[C@H]1O)NC(=O)[C@H](CC(C)C)NC(=O)[C@H](CCCCN)NC(=O)[C@H](CCCCN)NC(=O)C[C@@H]1O[C@@H](C)[C@@H](O)[C@@H](O)[C@@H]1O)C(N)=O)[C@@H](C)CC)C(N)=O,lecA,"binding, ITC",,pH 7.5,0.34
C[C@H](N)C(=O)N[C@@H](CCCNC(=N)N)C(=O)N[C@H](C(=O)N[C@@H](CCCC[N+](C)(C)C)C(=O)N[C@@H](CCC(N)=O)C(=O)N[C@H](C(=O)N[C@@H](C)C(=O)N[C@@H](CCCNC(=N)N)C(=O)N[C@@H](CCCCN)C(=O)N[C@@H](CO)C(=O)N[C@H](C(=O)NCC(=O)O)[C@@H](C)O)[C@@H](C)O)[C@@H](C)O,"Protein partner of snf, PHD domain (Drosophila melanogaster, UniProt Q9VG78)",intrinsic tryptophan fluorescence,,"pH 7.5, 25 °C, PHD finger",1.9
CC(C)C[C@H](NC(=O)[C@@H]1CCCN1C(=O)[C@H](CCCCN)NC(=O)CCS[C@@H]1O[C@H](CO)[C@H](O)[C@H](O)[C@H]1O)C(=O)NCCCC[C@H](NC(=O)[C@H](CC(C)C)NC(=O)[C@@H]1CCCN1C(=O)[C@H](CCCCN)NC(=O)CCS[C@@H]1O[C@H](CO)[C@H](O)[C@H](O)[C@H]1O)C(=O)N[C@@H](Cc1ccccc1)C(=O)N[C@@H](CS)C(N)=O,lecA,"binding, ITC",,pH 7.5,0.6
CCN(CCCC[C@H](NC(=O)[C@H](CC(C)C)NC(=O)[C@H](C)NC(=O)[C@H](Cc1ccc(CN)cc1)NC(=O)c1cccnc1)C(=O)N[C@@H](CO)C(N)=O)C(C)C,"Chromobox protein homolog 5, chromodomain (Homo sapiens, UniProt P45973)",isothermal titration calorimetry,,25 °C,3.91
CC(C)C[C@H](NC(=O)[C@H](CCCNC(=N)N)NC(=O)[C@H](CCC(=O)O)NC(=O)[C@H](CCCCN)NC(=O)[C@H](CCCNC(=N)N)NC(=O)[C@H](CCCCN)NC(=O)[C@]1(C)CCCC=CCCC[C@](C)(NC(=O)[C@H](CC(C)C)NC(=O)[C@H](CO)NC(=O)[C@H](C)NC(=O)[C@H](CCCCN)NC(=O)[C@H](CCCNC(=N)N)NC(=O)[C@H](C)NC(=O)[C@H](CCC(N)=O)NC(=O)[C@@H]2CCCN2C(=O)[C@@H](NC(=O)[C@H](CO)NC(=O)c2ccc3c(c2)C(=O)OC32c3ccc(N(C)C)cc3Oc3cc(N(C)C)ccc32)C(C)C)C(=O)N[C@@H](CCCNC(=N)N)C(=O)N[C@@H](Cc2ccccc2)C(=O)N[C@@H](CC(C)C)C(=O)N1)C(=O)O,"Transcription factor MYC4 (MYC4, Arabidopsis thaliana, UniProt O49687)","binding, fluorescence anisotropy",,"pH 8.0, MYC4 residues 55-253",1.5 ± 0.2
CC(C)=CCC/C(C)=C/CC/C(C)=C/C(=O)O,"Juvenile hormone acid O-methyltransferase (JHAMT, Bombyx mori, UniProt Q767F1)","binding, fluorescence binding",,"pH 8.0, 25 °C, 200 mM NaCl",0.2 ± 0.04
CC(=O)NC1C(OC2C(O)C(CO)OC(OC3C(O)C(CO)OC(OC4C(O)C(O)OC(CO)C4O)C3NC(C)=O)C2OC2OC(C)C(O)C(O)C2O)OC(CO)C(O)C1O (stereo not drawn),"sly, domain 4 (Streptococcus suis, UniProt Q55996)",binding,,,9.2
CSCC[C@H](NC(=O)[C@H](C)NC(=O)[C@H](CCC(N)=O)NC(=O)[C@H](CCC(N)=O)NC(=O)[C@H](CC(C)C)NC(=O)[C@H](CCC(=O)O)NC(=O)[C@H](CC(=O)O)NC(=O)[C@H](CCC(=O)O)NC(=O)CNC(=O)[C@H](Cc1ccc(O)cc1)NC(=O)[C@H](CO)NC(=O)[C@@H]1CCCN1C(=O)[C@@H](N)C(C)C)C(=O)N[C@@H](CCCNC(=N)N)C(=O)N[C@@H](CC(C)C)C(=O)N[C@@H](CC(C)C)C(=O)N[C@@H](CC(N)=O)C(=O)N[C@@H](C)C(=O)N[C@@H](C)C(=O)N[C@@H](CO)C(=O)N[C@@H](CCCNC(=N)N)C(=O)N[C@@H](CCC(N)=O)C(=O)N[C@@H](CCCNC(=N)N)C(=O)N[C@H](C(=O)N[C@@H](CCC(=O)O)C(=O)N[C@@H](C)C(=O)N[C@@H](C)C(=O)N[C@@H](CC(N)=O)C(=O)N[C@@H](CCC(=O)O)C(=O)N[C@@H](CC(=O)O)C(=O)N[C@@H](Cc1ccccc1)C(=O)NCC(=O)NCC(=O)N[C@H](C(=O)O)[C@@H](C)O)[C@@H](C)O,"Protein Smaug, residues 70-281 (smg, Drosophila melanogaster, UniProt Q23972)",isothermal titration calorimetry,,"pH 7.5, 15 °C",0.81 ± 0.13
CC[C@H](C)[C@H](N)C(=O)N[C@@H](CO)C(=O)N[C@@H](Cc1ccc(O)cc1)C(=O)NCC(=O)NCC(=O)N[C@@H](C)C(=O)N[C@@H](CC(=O)O)C(=O)N[C@@H](Cc1ccc(O)cc1)C(=O)N[C@@H](CCCCN)C(=O)O,"Pdcd1 (Mus musculus, UniProt Q02242)","binding, MST",,,57
CSCC[C@H](NC(=O)[C@H](C)NC(=O)CNC(=O)CCCC[C@@H]1SC[C@@H]2NC(=O)N[C@@H]21)C(=O)N[C@@H](CCCNC(=N)N)C(=O)NCC(=O)N[C@@H](C)C(=O)N[C@@H](CC(C)C)C(=O)N[C@@H](CO)C(=O)N[C@@H](CCC(=O)O)C(=O)NCC(=O)N[C@@H](CCC(N)=O)C(=O)N[C@@H](Cc1ccccc1)C(=O)N[C@@H](Cc1ccc(O)cc1)C(=O)N[C@@H](COP(=O)(O)O)C(=O)N1CCC[C@H]1C(=O)N1CCC[C@H]1C(=O)N[C@@H](CCC(=O)O)C(=O)N[C@@H](COP(=O)(O)O)C(=O)N[C@@H](Cc1ccccc1)C(=O)N[C@@H](C)C(=O)NCC(=O)O,"Motile sperm domain-containing protein 2, MSP domain (MOSPD2, Homo sapiens, UniProt Q8NHP6)","binding to FFAT peptide, SPR",,"pH 7.5, 25 °C",0.35 ± 0.16
O=C(Cc1cccs1)N[C@@H](Cn1cc(C(=O)O)nn1)B(O)O,"Beta-lactamase ADC-7 (Acinetobacter baumannii, UniProt Q6DRA1)",isothermal titration calorimetry,,,0.59

# Some of these lines once more:
SMILES,target,assay,system,setting,Kd [µM]
CSCC[C@H](NC(=O)[C@H](C)NC(=O)CNC(=O)CCCC[C@@H]1SC[C@@H]2NC(=O)N[C@@H]21)C(=O)N[C@@H](CCCNC(=N)N)C(=O)NCC(=O)N[C@@H](C)C(=O)N[C@@H](CC(C)C)C(=O)N[C@@H](CO)C(=O)N[C@@H](CCC(=O)O)C(=O)NCC(=O)N[C@@H](CCC(N)=O)C(=O)N[C@@H](Cc1ccccc1)C(=O)N[C@@H](Cc1ccc(O)cc1)C(=O)N[C@@H](COP(=O)(O)O)C(=O)N1CCC[C@H]1C(=O)N1CCC[C@H]1C(=O)N[C@@H](CCC(=O)O)C(=O)N[C@@H](COP(=O)(O)O)C(=O)N[C@@H](Cc1ccccc1)C(=O)N[C@@H](C)C(=O)NCC(=O)O,"Motile sperm domain-containing protein 2, MSP domain (MOSPD2, Homo sapiens, UniProt Q8NHP6)","binding to FFAT peptide, SPR",,"pH 7.5, 25 °C",0.35 ± 0.16
O=C(Cc1cccs1)N[C@@H](Cn1cc(C(=O)O)nn1)B(O)O,"Beta-lactamase ADC-7 (Acinetobacter baumannii, UniProt Q6DRA1)",isothermal titration calorimetry,,,0.59
